Assay results pooled from the literature.
A part holds a random share of what one study measured.
Chain of UniProt O60285 (whole entry, looked up): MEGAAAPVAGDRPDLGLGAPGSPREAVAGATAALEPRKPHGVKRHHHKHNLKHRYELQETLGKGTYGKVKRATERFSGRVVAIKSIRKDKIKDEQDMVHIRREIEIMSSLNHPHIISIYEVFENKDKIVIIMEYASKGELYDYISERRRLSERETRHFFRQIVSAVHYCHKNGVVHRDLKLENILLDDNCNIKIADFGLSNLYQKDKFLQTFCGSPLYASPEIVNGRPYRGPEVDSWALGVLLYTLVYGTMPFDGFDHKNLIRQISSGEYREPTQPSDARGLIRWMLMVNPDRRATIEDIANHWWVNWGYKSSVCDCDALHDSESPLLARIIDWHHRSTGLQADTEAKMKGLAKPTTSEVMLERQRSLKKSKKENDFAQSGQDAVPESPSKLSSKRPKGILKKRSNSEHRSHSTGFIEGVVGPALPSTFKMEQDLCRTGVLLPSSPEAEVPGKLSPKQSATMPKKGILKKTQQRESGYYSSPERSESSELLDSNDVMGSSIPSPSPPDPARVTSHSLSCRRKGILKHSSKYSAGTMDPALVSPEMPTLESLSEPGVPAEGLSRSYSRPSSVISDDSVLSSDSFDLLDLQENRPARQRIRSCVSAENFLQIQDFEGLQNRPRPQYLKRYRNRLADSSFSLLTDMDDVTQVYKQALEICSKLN

Set 1
Target: RNA binding protein fox-1 homolog 2, RRM domain, GST-SBP tag (RBFOX2, Homo sapiens, UniProt O43251-10, residues 100-194)
Technique: RNA Bind-n-Seq
Molecule type: RNA
Matrix: in vitro
Concentration: 365 nM
Notes: natural RNA segment, single round, ends assumed
Baseline: no-protein control
Reading: higher = stronger binding
Residues (chain): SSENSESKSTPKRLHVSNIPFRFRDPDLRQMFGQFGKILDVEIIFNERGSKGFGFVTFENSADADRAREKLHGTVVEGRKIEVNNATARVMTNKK
| Strand | RBNS enrichment (R) |
| --- | --- |
| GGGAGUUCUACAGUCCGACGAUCAUUUAUUUUGUGUAAGUAAGGGUUUGACCUAAAAAGAGCUCACGUGCACAUUAGCAAGUGUCCUCAUGCCCGCACCCGGUUUGUGUUGUAGAUCAACUAGCCAACGCCCUUGGAAUUCUCGGGUGCCAA | 0.211 |
| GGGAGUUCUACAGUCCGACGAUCUGGCCAAAUUUGCUUCCUCUUUCCCCUGGGGCAGUUGCCUCAUAUGGGGUCAUUACAAGACCCCUUGGGGGUGCUGCUUUGCUGCCUUCAAGAAUAAAAGCCUCUAUGAUUGGAAUUCUCGGGUGCCAA | 0.371 |
| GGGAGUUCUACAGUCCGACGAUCGCUCGGCCUGGGGCUAAAAGGACUUUGCACUGCCAUUUCUGAGGCAGGAGUCACAGUUGAGAGCUGGGCUUCCUGCCUCUUACAUACAAUAAAGAGAUUGCUAACACUGGUGGAAUUCUCGGGUGCCAA | 1.23 |
| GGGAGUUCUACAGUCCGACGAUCCUAAGCACGAAUAAGAUAUCUGCUUACAUUAAUUUUUAUAAAGUCAUUCAGUCAGAAUUUAGGAUUCAGUCAUUGGCAGGUAUCUAUGCAUUCGUAGAACUUCUAAGGGUUGGAAUUCUCGGGUGCCAA | 2.63 |
| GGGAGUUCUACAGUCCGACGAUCUGUCGUAAUAAAAGCCUCAGUGCAGCUUCUUCCUGCAGUUCACAUCUUGAUGCUAGGAUGCUCCUGGUACUAACUAAACAUUGGCAGUUCACAUCCCAGACACCAGGGGUUGGAAUUCUCGGGUGCCAA | 0.296 |
| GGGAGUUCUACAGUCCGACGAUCCUGUCCCUCUACCAGUUACCUUAGUUGGGGAGCCAGUGCGUGUCACACCAGAUAAGCGGUUGUGUGUCCGCUUUUGUUAUAUAGGGCAGGAUAGAAUGCAUGUCGGGUAAUGGAAUUCUCGGGUGCCAA | 17.7 |
| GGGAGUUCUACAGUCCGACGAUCCAGUGUUUAAAGAUUGUUGAUUUUUUUCCUGGGGAUAAUCUAUAUUAUACUGACUUUAUAUUAAUUAUUAUAAAACUGUGUUUGUACUGAAGAUGUGUUCAAUAUUUGUGUGGAAUUCUCGGGUGCCAA | 0.615 |
| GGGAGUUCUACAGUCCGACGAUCUUUUUCCCCCUUGAGGUUAUUGUUUCUUCCUAAUUUAUAUUUCAGAUACAUAGUGUAGAACAGGAAUUUGCAGAAGCCAUUUAAGUUAUCUUUUGAGGUAAGCUCUGAUUUGGAAUUCUCGGGUGCCAA | 0.488 |

Set 2
Target: Hepatocyte nuclear factor 3-alpha (Foxa1, Mus musculus, UniProt P35582, residues 1-468, full length assumed)
Chain of UniProt P35582 (whole entry, looked up): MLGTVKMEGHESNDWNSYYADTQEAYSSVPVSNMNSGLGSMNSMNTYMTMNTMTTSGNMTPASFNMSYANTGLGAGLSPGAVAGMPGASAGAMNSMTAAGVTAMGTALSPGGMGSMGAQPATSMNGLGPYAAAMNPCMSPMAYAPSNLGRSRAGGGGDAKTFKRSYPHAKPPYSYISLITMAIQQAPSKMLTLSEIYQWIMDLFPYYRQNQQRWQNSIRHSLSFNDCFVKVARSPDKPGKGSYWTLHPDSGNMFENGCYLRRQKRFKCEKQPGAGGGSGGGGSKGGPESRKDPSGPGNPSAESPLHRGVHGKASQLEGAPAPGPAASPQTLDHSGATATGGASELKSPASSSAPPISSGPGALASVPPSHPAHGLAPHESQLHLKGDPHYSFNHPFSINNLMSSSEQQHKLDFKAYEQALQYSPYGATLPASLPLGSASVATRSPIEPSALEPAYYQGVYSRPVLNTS
Technique: EMSA with sequencing
Molecule type: double-stranded DNA, one strand shown
Matrix: in vitro
Concentration: 10 and 20 nM
Notes: whole designed probe, mean of two concentrations, ends assumed
Baseline: negative control set to 0
Reading: higher = stronger binding
| Strand | normalised bound fraction |
| --- | --- |
| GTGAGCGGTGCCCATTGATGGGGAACGTGTGTGCGCGCGCGTGTGTGTGTGTTTTCTTAAGCCGGGCTATTCAAACCCTGCTGCCAATGATTCATAATTCTCCGGTAAAGGGGCACGTTTATTTGCATTAGATTGCAAACGGCGCGGTTCGCGCACTTTGCAGCCGGCCCGGTGGAGCAGCCAGTGCCGGATTTCTCCCTTTTTTTGCAGATCTGCAGATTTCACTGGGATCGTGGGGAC | 0.439 ratio |
| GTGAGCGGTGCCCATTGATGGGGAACTCTAAAATTCCAAAAAGTTTGCTTTTGCCCTTTTATAATACCTATCTCTAGCTTCTCTCTTTCTGGAGTAACTGCTGATTTATTTTCTGCCAATATTTGCTTTATTTTCTTGAAAGATATAGAAATGCAATCATACAGTAAGTGCTCCTATTTTCCTGTTTTCTTTCATTCAACATAATTATTTTAAGACTTATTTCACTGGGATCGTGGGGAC | 0.258 ratio |
| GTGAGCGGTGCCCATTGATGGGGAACAACTAGTTTAACAACAAAAAAATTTTACATTTATTTCCATTTTTATGATTCAACTAGTTAATAGTTTTTCAAAAATATTACTATATCTTTCAAAGTAAACATAAAAATAATGAAATTTATGTCTGAGATATAAAATCTCAATTGGCTTTATAATAAATATATGCTTATTAATACATGTGGTAGATGTATGCATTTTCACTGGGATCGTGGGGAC | 0.443 ratio |
| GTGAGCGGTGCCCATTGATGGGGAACGGGCCCAGCTGGAGCCTGAAGATACTGGGCTCCACCCAACATGTTGGGTGAGGGAAACTGGGCCATATTAGGAATTGCACAAAGATCTCAATGTAAACAGGAGCTGAACTGCAACCTGGGCATAAAGGAGAAACTGGATGTTTGGGTCCATAAGGCAGAGAAATGTTTGAGAACTTGTCTCAAAATTCTTCTGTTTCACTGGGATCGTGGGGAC | 0.259 ratio |
| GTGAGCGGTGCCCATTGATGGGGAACTAAAATATTTAGATAAACTTAGATCCACTGTAGCTTGAAATTGTAATTTTCCCAGAGATTTCTATGGAATTAATTTTGTAAGAAACTAATATGTAATCTTGAATGCTAATTTATAGATGCTTTTGCTTTTATCAGTAATATTTAATGTAGTTCTCTTCTATTTTTTGAAAATGATTACCTTGCTAAAGACATTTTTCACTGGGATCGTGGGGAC | -0.024 ratio |
| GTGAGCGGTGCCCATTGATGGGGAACATCTTCCCCCTCTTCCTTGCCCCACCAGCTCACATGGACTTCTTGCGCCGTTATAGGAAAATAAATAAAGCCGGCATTCGTTAACCCTCTTCTGGCGCAAACTGCTGTTTGCTCTGGATGAATCATGGTCCTTTGGCGACGCCAGGCTCCGGGAGAGCAAAGCACCGTGTCAGGGCCATGATCCGGGGTGGCCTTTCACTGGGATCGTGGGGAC | 0.323 ratio |
| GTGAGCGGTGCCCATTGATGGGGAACTGAAAGACTAGAGGACATATAATAGAGGCACATGTAAAAATTATAGATAATAGTGTCAACTTTCATAACTTAAAGTGAAAAATTTCTTTTACCATGTTTACTTTGCAGGCAGAAAAATAACATTAGTAAGGAATAATTGCTATTTCTTTTTGGTTATTTTTCTCTCATTCATATTAACTTTTCCTAAATTTCATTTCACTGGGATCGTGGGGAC | 0.375 ratio |
| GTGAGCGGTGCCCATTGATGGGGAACGATATTTCGCATGCGCAATTCACAATAAGGTTCATACTCCTATGAGAATCTAATGCTGCCTCTGATCTGACAGGAGGCAGCTCAGGCAGTAGTGTAATCTATGGGGAGTGGCTGTAAATACAGATGAAGCTTTGCTCTCTCACTGCCAACTCACCTTCTGGTGTGCAGCCTGGTTCCTAACAGGCCACAGACATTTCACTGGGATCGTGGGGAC | -0.0324 ratio |

Set 3
Target: Probable WRKY transcription factor 33, N-terminal DNA-binding domain (WRKY33, Arabidopsis thaliana, UniProt Q8S8P5, residues 169-264)
Chain of UniProt Q8S8P5 (169-264, looked up): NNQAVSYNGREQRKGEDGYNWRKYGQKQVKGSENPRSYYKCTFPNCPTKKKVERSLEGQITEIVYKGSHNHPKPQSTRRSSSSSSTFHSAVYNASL
Technique: DNA-protein interaction ELISA
Molecule type: double-stranded DNA, one strand shown
Matrix: in vitro, bacterial lysate
Concentration: not given
Notes: whole dsDNA probe, crude lysate protein
Baseline: highest signal in screen
Reading: higher = stronger binding
| Strand | relative absorbance |
| --- | --- |
| AAAAAAGTACATGCGTAGATAATGTTAAAA | 23.2 % of maximum |
| AAAAAATTCAGAGCTTCGAGGTTCCGAAAA | 21.3 % of maximum |
| AAAAAAGTGTTAGATTGTAGTTGATAAAA | 20.7 % of maximum |
| AAAAAATTCAAAATGATCACTACGGGAAAA | 22.3 % of maximum |
| AAAAAATTAATCCATGCTTATGTCTGAAAA | 22.7 % of maximum |
| AAAAAAACTCTAGGTCAATATTATTCAAAA | 25.6 % of maximum |
| AAAAAATCCATTCTTCGCGTTTATCCAAAA | 30.2 % of maximum |
| AAAAAAAAGCGTTACATCATATGGAAAAAA | 24.9 % of maximum |

Further values, each from its own experiment
| Structure (SMILES) | target | observed | technique | concentration | measurement | value |
| --- | --- | --- | --- | --- | --- | --- |
| O=C(NS(=O)(=O)c1ccc(NCC2CCOCC2)c([N+](=O)[O-])c1)c1ccc(N2CCN(Cc3ccc(C(F)(F)F)cc3-c3ccc(Cl)cc3)CC2)cc1Oc1cnc2[nH]ccc2c1 | NUAK family SNF1-like kinase 1 (NUAK1, Homo sapiens, UniProt O60285) | cell-free assay | competition with immobilised ligand | 1 µM | remaining binding | 98% |

A few entries again (set 2):
| Strand | normalised bound fraction |
| --- | --- |
| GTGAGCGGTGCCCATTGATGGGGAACGATATTTCGCATGCGCAATTCACAATAAGGTTCATACTCCTATGAGAATCTAATGCTGCCTCTGATCTGACAGGAGGCAGCTCAGGCAGTAGTGTAATCTATGGGGAGTGGCTGTAAATACAGATGAAGCTTTGCTCTCTCACTGCCAACTCACCTTCTGGTGTGCAGCCTGGTTCCTAACAGGCCACAGACATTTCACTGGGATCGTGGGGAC | -0.0324 ratio |
| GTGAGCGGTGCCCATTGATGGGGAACGTGTGTGCGCGCGCGTGTGTGTGTGTTTTCTTAAGCCGGGCTATTCAAACCCTGCTGCCAATGATTCATAATTCTCCGGTAAAGGGGCACGTTTATTTGCATTAGATTGCAAACGGCGCGGTTCGCGCACTTTGCAGCCGGCCCGGTGGAGCAGCCAGTGCCGGATTTCTCCCTTTTTTTGCAGATCTGCAGATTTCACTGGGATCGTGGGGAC | 0.439 ratio |
| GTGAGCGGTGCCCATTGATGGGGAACTGAAAGACTAGAGGACATATAATAGAGGCACATGTAAAAATTATAGATAATAGTGTCAACTTTCATAACTTAAAGTGAAAAATTTCTTTTACCATGTTTACTTTGCAGGCAGAAAAATAACATTAGTAAGGAATAATTGCTATTTCTTTTTGGTTATTTTTCTCTCATTCATATTAACTTTTCCTAAATTTCATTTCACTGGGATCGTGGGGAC | 0.375 ratio |
| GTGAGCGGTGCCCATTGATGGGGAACAACTAGTTTAACAACAAAAAAATTTTACATTTATTTCCATTTTTATGATTCAACTAGTTAATAGTTTTTCAAAAATATTACTATATCTTTCAAAGTAAACATAAAAATAATGAAATTTATGTCTGAGATATAAAATCTCAATTGGCTTTATAATAAATATATGCTTATTAATACATGTGGTAGATGTATGCATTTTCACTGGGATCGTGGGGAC | 0.443 ratio |
